Assay results pooled from the literature.
Parts stem from different laboratories: compare values within a part only. Positions count from the first letter of the parent shown.

Block 1
Substance: PhoQ, residues 284 288 289 292 302 303 TAVSDG
Technique: Sort-seq
Measured: YFP reporter
Medium: E. coli
Notes: PhoQ-PhoP variant library
Together with: 10 µM Mg2+
Reference: high Mg2+ state
Direction: higher = stronger signaling
Measurement: fold induction
PhoP, residues 12 14 15 18 19 VHTVL (Escherichia coli, UniProt P23836): 10.8
PhoP, residues 12 14 15 18 19 ICWRQ (Escherichia coli, UniProt P23836): 6.96
PhoP, residues 12 14 15 18 19 TQCLL (Escherichia coli, UniProt P23836): 13.5

Block 2
Target: Sal-like protein 4, full length isoform B (SALL4, Homo sapiens, UniProt Q9UJQ4-2, residues 1-616)
Technique: universal PBM
Form: double-stranded DNA, one strand shown
Medium: in vitro
Tested at: not given
Notes: 8-mer, flanks averaged, mean of replicates
Direction: higher = stronger binding
Measurement: E-score
AATTCGAA: 0.189
TAGGTGCA: -0.0644
CCACGAAG: -0.102
AGCGTTTG: -0.17
CCGGTCTA: -0.316
AGGTGTTG: -0.0206
ATTTCTTG: 0.282
ATACCCCC: 0.0167
ATCCCGCG: -0.00563
CTGCGTGA: -0.0895
CGGCAATA: 0.139
CCTGAGTA: 0.0272
CTCAACGC: -0.316
AAACAGCT: -0.0674
AACTAGAT: 0.205
TCCTAGGA: -0.247

Block 3
Target: CCND3, cyclin fold, Cln2 fusion (human)
Technique: yeast growth competition, sequencing
Medium: yeast
Notes: weak parent motif
Reference: not given
Direction: higher = stronger binding
Measurement: normalised enrichment score
Starting sequence: CDKN1B docking peptide (human); PSACRNLFGPVDH; partner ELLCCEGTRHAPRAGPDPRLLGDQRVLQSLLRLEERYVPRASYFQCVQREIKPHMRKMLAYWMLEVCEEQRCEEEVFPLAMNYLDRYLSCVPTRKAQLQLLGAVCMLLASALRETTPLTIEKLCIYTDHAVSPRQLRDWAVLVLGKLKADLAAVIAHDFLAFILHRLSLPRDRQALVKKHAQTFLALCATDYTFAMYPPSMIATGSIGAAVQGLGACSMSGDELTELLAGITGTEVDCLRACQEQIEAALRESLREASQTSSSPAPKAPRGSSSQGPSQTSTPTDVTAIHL
P10G: 0.144
A3S: 0.111
N6S: 0.155
F8D: 0.0725
H13D: 0.103
N6H: 0.113
N6P: 0.0602
A3D: 0.0226
V11L: 0.196
D12Q: 0.161

Block 4
Target: Histone acetyltransferase KAT6A, both winged helices, GST fusion (KAT6A, Homo sapiens, UniProt Q92794, residues 1-181)
Technique: protein binding microarray
Form: double-stranded DNA, one strand shown
Medium: in vitro
Tested at: not given
Notes: 8-mer, flanks averaged, mean of 2 arrays, mostly near background
Reference: not given
Direction: higher = stronger binding
Measurement: E-score
Target sequence (chain): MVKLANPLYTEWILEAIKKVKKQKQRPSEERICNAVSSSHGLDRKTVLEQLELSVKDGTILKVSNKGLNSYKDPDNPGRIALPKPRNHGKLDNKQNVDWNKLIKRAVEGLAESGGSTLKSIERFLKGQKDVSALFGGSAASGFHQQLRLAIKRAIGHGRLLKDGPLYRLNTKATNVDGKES
AAGCTATA: -0.0318
CCTCCAAA: -0.171
TCGGATCA: 0.0612
CCTTGCCG: 0.19
AAGACCCT: -0.144
GGAATCAC: 0.0314
CGGCTGGC: 0.119
ACGACTGG: 0.00898
AACAATTC: -0.039
AGCCACAC: -0.111
AGTCGTAA: -0.124
GGGACTAA: -0.129
ATTTGCGA: -0.0544
GGCTAACA: 0.0141

Repeated from above (block 4):
TCGGATCA: 0.0612
CCTTGCCG: 0.19
AAGACCCT: -0.144
GGAATCAC: 0.0314
CGGCTGGC: 0.119
ACGACTGG: 0.00898
